# Experimental data gathered from unrelated publications.
# A part holds a random share of what one study measured.
# Chain of UniProt Q16832 (whole entry, looked up): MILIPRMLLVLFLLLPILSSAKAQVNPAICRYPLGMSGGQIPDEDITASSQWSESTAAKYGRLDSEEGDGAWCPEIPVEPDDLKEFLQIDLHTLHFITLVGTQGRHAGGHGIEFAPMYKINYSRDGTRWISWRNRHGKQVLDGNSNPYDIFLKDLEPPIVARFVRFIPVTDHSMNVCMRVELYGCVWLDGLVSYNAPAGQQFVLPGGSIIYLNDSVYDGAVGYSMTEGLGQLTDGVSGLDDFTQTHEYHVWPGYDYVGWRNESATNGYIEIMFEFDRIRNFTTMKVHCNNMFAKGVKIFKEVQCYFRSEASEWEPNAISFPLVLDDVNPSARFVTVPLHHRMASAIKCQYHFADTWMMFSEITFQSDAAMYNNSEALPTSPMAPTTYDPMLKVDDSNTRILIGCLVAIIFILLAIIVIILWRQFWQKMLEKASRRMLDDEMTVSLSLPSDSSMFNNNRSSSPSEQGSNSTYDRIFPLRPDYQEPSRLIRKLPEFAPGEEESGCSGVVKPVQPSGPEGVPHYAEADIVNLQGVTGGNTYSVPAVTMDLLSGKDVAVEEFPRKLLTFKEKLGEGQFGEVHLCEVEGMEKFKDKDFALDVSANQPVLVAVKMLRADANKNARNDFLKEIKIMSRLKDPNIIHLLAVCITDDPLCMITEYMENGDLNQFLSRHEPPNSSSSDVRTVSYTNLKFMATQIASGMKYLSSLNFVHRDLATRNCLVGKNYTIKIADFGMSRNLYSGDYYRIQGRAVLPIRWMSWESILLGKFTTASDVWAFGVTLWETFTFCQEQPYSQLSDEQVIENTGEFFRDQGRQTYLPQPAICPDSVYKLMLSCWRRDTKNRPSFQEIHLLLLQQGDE
# Chain of UniProt P28482 (whole entry, looked up): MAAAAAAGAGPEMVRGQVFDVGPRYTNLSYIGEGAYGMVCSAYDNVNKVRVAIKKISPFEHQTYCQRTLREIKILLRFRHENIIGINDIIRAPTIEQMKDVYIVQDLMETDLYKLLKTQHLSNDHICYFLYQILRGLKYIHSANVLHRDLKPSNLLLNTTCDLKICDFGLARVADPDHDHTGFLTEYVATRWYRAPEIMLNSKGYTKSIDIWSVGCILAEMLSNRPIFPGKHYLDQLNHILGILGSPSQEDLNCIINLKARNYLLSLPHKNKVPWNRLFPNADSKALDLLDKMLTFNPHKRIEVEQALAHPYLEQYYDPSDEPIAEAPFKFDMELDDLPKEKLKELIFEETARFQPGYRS
# Chain of UniProt Q13237 (whole entry, looked up): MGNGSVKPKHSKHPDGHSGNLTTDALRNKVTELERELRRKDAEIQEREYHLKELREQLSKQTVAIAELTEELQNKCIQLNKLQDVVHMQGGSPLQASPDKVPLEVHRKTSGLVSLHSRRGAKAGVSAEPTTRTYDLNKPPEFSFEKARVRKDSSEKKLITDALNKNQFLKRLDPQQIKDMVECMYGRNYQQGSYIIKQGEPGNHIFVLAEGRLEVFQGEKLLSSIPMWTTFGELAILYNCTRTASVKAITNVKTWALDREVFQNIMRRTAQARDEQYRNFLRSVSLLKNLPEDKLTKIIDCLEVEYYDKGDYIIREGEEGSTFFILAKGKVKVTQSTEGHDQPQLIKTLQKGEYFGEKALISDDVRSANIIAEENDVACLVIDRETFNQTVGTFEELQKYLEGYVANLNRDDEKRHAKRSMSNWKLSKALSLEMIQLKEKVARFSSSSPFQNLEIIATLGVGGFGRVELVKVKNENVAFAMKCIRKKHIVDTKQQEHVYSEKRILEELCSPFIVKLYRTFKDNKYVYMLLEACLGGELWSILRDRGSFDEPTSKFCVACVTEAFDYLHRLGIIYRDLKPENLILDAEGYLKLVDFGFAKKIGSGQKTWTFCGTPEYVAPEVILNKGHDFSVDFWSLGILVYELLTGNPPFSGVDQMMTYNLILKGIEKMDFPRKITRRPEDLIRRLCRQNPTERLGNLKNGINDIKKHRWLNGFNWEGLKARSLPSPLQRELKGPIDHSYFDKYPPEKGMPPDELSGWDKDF
# Chain of UniProt P51956 (whole entry, looked up): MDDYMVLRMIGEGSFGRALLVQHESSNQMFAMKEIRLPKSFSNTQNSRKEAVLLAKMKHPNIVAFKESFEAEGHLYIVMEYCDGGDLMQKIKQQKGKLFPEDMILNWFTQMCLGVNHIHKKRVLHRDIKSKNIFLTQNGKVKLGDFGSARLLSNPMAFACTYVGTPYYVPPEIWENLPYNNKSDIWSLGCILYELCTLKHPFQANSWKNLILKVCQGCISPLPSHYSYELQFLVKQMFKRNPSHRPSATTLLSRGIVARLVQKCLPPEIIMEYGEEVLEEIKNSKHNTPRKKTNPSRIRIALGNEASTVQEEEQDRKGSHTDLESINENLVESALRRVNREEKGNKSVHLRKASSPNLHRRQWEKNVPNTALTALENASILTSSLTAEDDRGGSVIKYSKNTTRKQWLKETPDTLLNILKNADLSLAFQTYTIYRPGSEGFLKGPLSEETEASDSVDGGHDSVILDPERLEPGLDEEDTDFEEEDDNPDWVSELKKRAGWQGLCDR
# Chain of UniProt Q8N4C8 (whole entry, looked up): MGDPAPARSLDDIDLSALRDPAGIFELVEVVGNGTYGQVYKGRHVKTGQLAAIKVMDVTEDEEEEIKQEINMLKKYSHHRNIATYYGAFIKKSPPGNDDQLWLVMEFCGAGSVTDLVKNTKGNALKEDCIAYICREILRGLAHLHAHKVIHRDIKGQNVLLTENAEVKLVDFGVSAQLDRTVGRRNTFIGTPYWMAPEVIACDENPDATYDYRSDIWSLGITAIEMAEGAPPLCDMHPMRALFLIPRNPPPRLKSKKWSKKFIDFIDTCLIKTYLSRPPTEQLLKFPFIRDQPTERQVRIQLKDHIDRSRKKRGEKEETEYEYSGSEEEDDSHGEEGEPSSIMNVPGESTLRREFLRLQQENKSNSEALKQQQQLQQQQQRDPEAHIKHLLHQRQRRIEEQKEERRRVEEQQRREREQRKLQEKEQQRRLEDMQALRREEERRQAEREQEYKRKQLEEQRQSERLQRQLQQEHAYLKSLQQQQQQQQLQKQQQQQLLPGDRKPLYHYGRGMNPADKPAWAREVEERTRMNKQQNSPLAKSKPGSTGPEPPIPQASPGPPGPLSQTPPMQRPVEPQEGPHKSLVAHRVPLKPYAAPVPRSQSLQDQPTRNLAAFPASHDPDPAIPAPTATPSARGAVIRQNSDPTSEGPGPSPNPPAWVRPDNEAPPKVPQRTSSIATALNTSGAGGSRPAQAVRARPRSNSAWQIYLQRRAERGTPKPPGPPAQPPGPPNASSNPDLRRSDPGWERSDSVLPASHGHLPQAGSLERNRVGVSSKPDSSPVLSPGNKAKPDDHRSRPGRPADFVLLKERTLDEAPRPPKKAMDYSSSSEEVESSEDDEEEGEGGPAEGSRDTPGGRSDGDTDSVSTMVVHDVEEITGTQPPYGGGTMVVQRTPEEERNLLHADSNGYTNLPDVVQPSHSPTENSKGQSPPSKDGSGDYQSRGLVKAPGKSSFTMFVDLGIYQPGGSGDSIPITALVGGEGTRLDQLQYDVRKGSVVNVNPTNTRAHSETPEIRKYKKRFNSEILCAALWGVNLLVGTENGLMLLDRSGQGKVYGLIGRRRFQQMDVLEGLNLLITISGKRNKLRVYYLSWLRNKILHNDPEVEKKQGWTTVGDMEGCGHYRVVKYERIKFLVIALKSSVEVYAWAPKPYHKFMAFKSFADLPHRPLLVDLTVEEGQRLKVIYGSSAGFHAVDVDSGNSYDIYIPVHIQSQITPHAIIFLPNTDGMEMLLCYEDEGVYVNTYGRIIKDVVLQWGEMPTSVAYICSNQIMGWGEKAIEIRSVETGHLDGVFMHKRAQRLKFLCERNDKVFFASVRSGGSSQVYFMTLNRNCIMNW

# Sample 1 — observed: enzyme activity; mode: inhibitor; concentration: 0.5 µM; relative to: control
# Structure (SMILES): Oc1cccc(-c2nc(N3CCOCC3)c3oc4ncccc4c3n2)c1
target,remaining activity
"PRKG2 (Homo sapiens, UniProt Q13237)",89.2%
"PLK3 (Homo sapiens, UniProt Q9H4B4)",94.6%
"MAPK1 (Homo sapiens, UniProt P28482)",89%
"ROCK1 (Homo sapiens, UniProt Q13464)",94.9%
"NEK3 (Homo sapiens, UniProt P51956)",92.9%
"DDR2 (Homo sapiens, UniProt Q16832)",94.6%
"PNCK (Homo sapiens, UniProt Q6P2M8)",96.7%
"TXK (Homo sapiens, UniProt P42681)",94.8%
"RPS6KA4 (Homo sapiens, UniProt O75676)",104%
"GRK4 (Homo sapiens, UniProt P32298)",102%
"Cyclin-dependent kinase 1, with cyclin A (CDK1, Homo sapiens, UniProt P06493)",84.4%
"MET (Homo sapiens, UniProt P08581)",97.8%
"MINK1 (Homo sapiens, UniProt Q8N4C8)",96%
"Cyclin-dependent kinase 9, with cyclin K (CDK9, Homo sapiens, UniProt P50750)",96%
"DCLK2 (Homo sapiens, UniProt Q8N568)",102%
"MARK4 (Homo sapiens, UniProt Q96L34)",93.4%
"MAP2K1 (Homo sapiens, UniProt Q02750)",97.7%
"PAK3 (Homo sapiens, UniProt O75914)",97.5%
"Myosin-IIIb (MYO3B, Homo sapiens, UniProt Q8WXR4)",81.3%

# Sample 2 — observed: ligand displacement; concentration: 10 µM
# Target: D(2) dopamine receptor (DRD2, Homo sapiens, UniProt P14416)
# Chain of UniProt P14416 (whole entry, looked up): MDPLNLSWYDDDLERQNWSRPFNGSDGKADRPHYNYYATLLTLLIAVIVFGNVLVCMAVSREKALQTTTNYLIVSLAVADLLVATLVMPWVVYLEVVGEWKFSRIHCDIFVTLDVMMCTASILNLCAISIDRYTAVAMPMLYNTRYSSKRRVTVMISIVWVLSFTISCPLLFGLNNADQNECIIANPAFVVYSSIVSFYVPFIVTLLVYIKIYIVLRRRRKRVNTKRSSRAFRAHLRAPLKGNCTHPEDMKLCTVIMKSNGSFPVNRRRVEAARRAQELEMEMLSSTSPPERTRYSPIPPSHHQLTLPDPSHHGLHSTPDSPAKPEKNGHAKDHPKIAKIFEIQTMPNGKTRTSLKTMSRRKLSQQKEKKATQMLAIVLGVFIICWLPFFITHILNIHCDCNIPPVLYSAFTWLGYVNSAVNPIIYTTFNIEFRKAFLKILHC
Compound,inhibition [%]
Cn1cc(Cl)c2c(Oc3c(F)cc(Nc4cc(Cl)nc(N)n4)cc3F)ccnc21,1.05
CCc1ccccc1C(=O)Nc1n[nH]c2c(C)c(F)c(C3C(C#N)=C(C)N(C)C(C)=C3C#N)cc12,-10.4
CC1CCN(c2ccnc(NCc3cn(C)cn3)n2)CC1,4.96
CS(=O)(=O)N1CCCC(NC(=O)[C@H](CCC2CCCCC2)NC(=O)c2ccc(CNC(=O)c3cnc4ccccn34)cc2)C1 (stereo partly drawn),7.14
COc1cc(-c2cn(C3CCc4c(F)cccc4N(CC(F)(F)F)C3=O)nn2)ccc1-n1cnc(C)c1 (stereo not drawn),31.2
COc1ccc2cc(OCC3(C(=O)O)CN(C(=O)c4ccc(F)cc4)C3)ccc2c1,-23.4
c1ccc(N2CCN(Cc3nc4ccccc4[nH]3)CC2)nc1,-7.28
CN(C)C(=O)c1sc2nc(N3CCC(S(C)(=O)=O)CC3)cc(C(F)(F)F)c2c1N,1.12
Cc1ncc(-c2cc(Cl)ccc2F)cc1-n1c(=O)n(CC(N)=O)c2ccccc21,-1.99
c1ccc(C2CCN(c3cnc4c(N5CCOCC5)nccn34)CC2)cc1,1.22
C[C@H](c1ccc(F)cc1)N(Cc1cccc(C(=O)O)c1)C(=O)c1cnc2ccccc2c1,7.61

# Sample 3 — observed: transporter uptake; mode: inhibitor; method: radiometric; setting: cell membranes
# Target: Synaptic vesicular amine transporter (SLC18A2, Homo sapiens, UniProt Q05940)
# Chain of UniProt Q05940 (whole entry, looked up): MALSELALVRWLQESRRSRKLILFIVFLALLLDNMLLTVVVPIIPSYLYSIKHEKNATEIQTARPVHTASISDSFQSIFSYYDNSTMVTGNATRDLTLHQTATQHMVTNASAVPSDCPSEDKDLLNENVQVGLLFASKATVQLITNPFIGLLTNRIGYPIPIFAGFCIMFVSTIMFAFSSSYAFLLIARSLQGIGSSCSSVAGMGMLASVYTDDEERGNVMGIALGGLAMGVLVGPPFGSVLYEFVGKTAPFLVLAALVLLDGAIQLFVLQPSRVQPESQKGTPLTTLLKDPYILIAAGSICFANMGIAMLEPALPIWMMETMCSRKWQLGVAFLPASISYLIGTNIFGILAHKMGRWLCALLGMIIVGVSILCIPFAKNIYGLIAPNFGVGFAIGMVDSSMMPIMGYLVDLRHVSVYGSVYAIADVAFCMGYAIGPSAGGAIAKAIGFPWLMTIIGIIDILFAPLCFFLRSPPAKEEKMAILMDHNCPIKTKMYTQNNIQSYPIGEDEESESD
Compound,IC50 [nM]
COc1cc2nc(N3CCN(C(=O)C4CCCO4)CC3)nc(N)c2cc1OC (stereo not drawn),313
CC(C(O)c1ccc(O)cc1)N1CCC(Cc2ccccc2)CC1 (stereo not drawn),312
CCCN(CCc1cccs1)[C@H]1CCc2c(O)cccc2C1,850
COc1cc2nc(N3CCN(C(=O)C4COc5ccccc5O4)CC3)nc(N)c2cc1OC (stereo not drawn),8
COc1ccc(C[C@@H](C)NC[C@H](O)c2ccc(O)c(NC=O)c2)cc1 (racemic),244
CC(C)(Cc1ccccc1)NCC(O)c1ccc(O)c(NS(C)(=O)=O)c1 (stereo not drawn),600
CN1CCN(c2ccc(C(=O)Nc3n[nH]c4ccc(Cc5cc(F)cc(F)c5)cc34)c(NC3CCOCC3)c2)CC1,670

# Sample 4 — method: phase 2a clinical trial
# Compound: CC(C)n1cnc(-c2ccc(F)cc2)c1-c1ncc(C(=O)Nc2ccc(N3CCN(C)CC3)cc2)[nH]1
# Host: patients with idiopathic pulmonary fibrosis
item,dose,setting,patients with treatment-emergent adverse events [%]
investigations (SOC),30 mg once daily,Grade 4,0
C-reactive protein increased,30 mg once daily,Grade 2,0
left ventricular dysfunction,30 mg once daily,Grade 2,0
protein urine present,30 mg once daily,Grade 2,0
lumbar vertebral fracture,30 mg once daily,"Grade 1, maximum intensity",0
electrocardiogram QT prolonged,60 mg once daily,Grade 1,0
C-reactive protein increased,60 mg once daily,Grade 5,0
first degree atrioventricular block,60 mg once daily,Grade 5,0
C-reactive protein increased,60 mg once daily,Grade 4,0
electrocardiogram QT prolonged,30 mg once daily,Grade 5,0
left ventricular dysfunction,60 mg once daily,Grade 2,0

# Excerpt of the above (sample 2):
Compound,inhibition [%]
COc1cc(-c2cn(C3CCc4c(F)cccc4N(CC(F)(F)F)C3=O)nn2)ccc1-n1cnc(C)c1 (stereo not drawn),31.2
COc1ccc2cc(OCC3(C(=O)O)CN(C(=O)c4ccc(F)cc4)C3)ccc2c1,-23.4
c1ccc(N2CCN(Cc3nc4ccccc4[nH]3)CC2)nc1,-7.28
